# Published values from different studies.
# Parts stem from different laboratories: compare values within a part only.

# Series 1
# Target: Probable WRKY transcription factor 11, DNA-binding domain (WRKY11, Arabidopsis thaliana, UniProt Q9SV15, residues 228-325)
# Technique: DNA-protein interaction ELISA
# Molecule type: double-stranded DNA, one strand shown
# Medium: in vitro, bacterial lysate
# Tested at: not given
# Notes: whole dsDNA probe, crude lysate protein
# Relative to: highest signal in screen
# Direction: higher = stronger binding
# Residues (chain): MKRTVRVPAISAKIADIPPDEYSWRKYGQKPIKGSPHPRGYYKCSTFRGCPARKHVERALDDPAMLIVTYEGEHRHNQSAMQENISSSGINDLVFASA
Oligonucleotide,relative absorbance
AAAAAACGGTCGCGATCGTTAATGATAAAA,18.2 % of maximum
AAAAAATCAGTCTGAGACTTACAACTAAAA,18.4 % of maximum
AAAAAAGCCATCATGGTTAGTGTACAAAAA,16.1 % of maximum
AAAAAAGCCTTTACCCTTGTTCCTCTAAAA,16.4 % of maximum
AAAAAATTCGGGACTAGTAGTGGTGAAAAA,15.8 % of maximum
AAAAAAGCTTTCAACATCTGCGTCCAAAAA,11.2 % of maximum
AAAAAACTACGTATATTCAGGCCCTAAAAA,17.3 % of maximum
AAAAAAACTTCTGTCCCTGTTCCCGTAAAA,13.3 % of maximum
AAAAAATTCAAAATGATCACTACGGGAAAA,14.1 % of maximum
AAAAAATCCATGTTTAAGCTGGTCTCAAAA,17 % of maximum
AAAAAAAACAAAACCTCCTAATAGCGAAAA,9.8 % of maximum
AAAAAACACTTAACTGAGTGGGATTGAAAA,17.6 % of maximum
AAAAAATTCTAGCTTTTAACTTTAGCAAAA,14.4 % of maximum
AAAAAAATGATTGCCAATGCTCGCAAAAAA,17.9 % of maximum
AAAAAAATGTTCAAGCTCGATCTACAAAAA,15.6 % of maximum
AAAAAACTCTTAAGGAAAGTTCCGACAAAA,16.1 % of maximum
AAAAAACTCGTACATCTATCGCTACGAAAA,13.8 % of maximum

# Series 2
# Target: Ras GTPase-activating protein-binding protein 1, full length (G3BP1, Homo sapiens, UniProt Q13283)
# Sequence of UniProt Q13283 (whole entry, looked up): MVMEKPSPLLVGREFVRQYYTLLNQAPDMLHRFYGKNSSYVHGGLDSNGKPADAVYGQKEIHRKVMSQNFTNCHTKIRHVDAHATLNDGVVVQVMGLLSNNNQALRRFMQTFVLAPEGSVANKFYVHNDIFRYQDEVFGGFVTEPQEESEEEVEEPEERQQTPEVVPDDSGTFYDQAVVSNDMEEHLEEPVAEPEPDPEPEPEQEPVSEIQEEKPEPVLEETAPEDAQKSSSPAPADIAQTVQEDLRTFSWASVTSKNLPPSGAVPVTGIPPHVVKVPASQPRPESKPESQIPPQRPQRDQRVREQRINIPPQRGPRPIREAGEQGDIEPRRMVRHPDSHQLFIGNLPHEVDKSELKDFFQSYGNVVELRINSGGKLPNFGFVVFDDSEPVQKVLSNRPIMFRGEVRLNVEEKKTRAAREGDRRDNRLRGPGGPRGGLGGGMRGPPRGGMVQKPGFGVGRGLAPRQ
# Technique: RNA Bind-n-Seq
# Molecule type: RNA
# Medium: in vitro
# Tested at: 200 nM
# Notes: whole 134-nt RNA, ends assumed
# Added: 150 mM LiCl
# Relative to: input library
# Direction: higher = stronger binding
# Each molecule: 7-deaza-guanosine replaces G
Oligonucleotide,log2 enrichment
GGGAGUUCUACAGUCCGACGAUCAGAGAAUAAGAAUUCAGCUGACAGGAGGCCUCUAUCCUGUCCCUCCACCCCACCCUCCACCUCAAUCCCCUCCCAUCUUCCCCAGACCUAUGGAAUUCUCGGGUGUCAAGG,0.0744
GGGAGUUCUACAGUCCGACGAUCCACAGACAACACGCACCCACACAGGCACAGAGGGAAGGGGUUGGGAUGGGGACAGGGUGCACAGCAGGGCGGGGUAGGACCCCAGCCCCUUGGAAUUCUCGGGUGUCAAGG,1
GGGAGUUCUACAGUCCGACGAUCACCAUGCAGGUGGGCAUCUUUGGGAAGUGGGGCAAGGGGGGGAUAGGGAGGGGGGUAACAUUUUGGGAACAGGUGGUCCCAGGUCGUUUCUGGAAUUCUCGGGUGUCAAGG,0.145
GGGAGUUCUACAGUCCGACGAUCACCAUGCAGGUGGGCAUCUUUGGGAAGUGGGGCAAGGGGGGGAUAGGGAGGGGGGUAACACUUUGGGAACAGGUGGUCCCAGGUCGUAUCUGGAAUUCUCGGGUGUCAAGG,0.0848
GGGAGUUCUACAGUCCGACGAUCGUCCUGUGCUACACAUCGUAUGUACCGAAUCGGUUUUUUUGGAAAAAGGAAAAAAAGGAAAGUAUUAUGUUACGCCGUUCGGAUCUGCACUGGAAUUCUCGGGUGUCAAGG,-2.06
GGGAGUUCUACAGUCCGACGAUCUCCUGUGCUACACAUCGUAUGUACCGAAUCAAAUUUUUAAAUUUUUUUAAACCCCCAAAAAAGUAUUAUGUUACGCCGUUCGGAUCUGCAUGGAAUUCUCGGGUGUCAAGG,0.716
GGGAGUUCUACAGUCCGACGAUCUGGGAGGUGGAUUUUGUUUAUUUUUUUAGCUCAUUUCCAGGGGUGGGAAUUUUGUUUUAAUAUGUGUCAUGAAUAAAGUUGUUUUUGAAAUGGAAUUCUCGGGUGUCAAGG,-0.391
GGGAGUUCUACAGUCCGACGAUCAGUCCUGUGCUACACAUCGUAUGUACCGAAUCGGAAAAAAAGGAAAAAGGUUUUUGGAAAGUAUUAUGUUACGCCGUUCGGAUCUGCACUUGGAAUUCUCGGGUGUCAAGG,-2.41
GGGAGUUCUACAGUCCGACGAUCUGUGCUACACAUCGUAUGUACCGAAUCGGGAAAAAAAGGGGAAAAAAAGGGAAAAAAAGGGGAAAGUAUUAUGUUACGCCGUUCGGAUCUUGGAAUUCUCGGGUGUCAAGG,0.32
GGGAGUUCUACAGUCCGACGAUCGUCCUGUGCUACACAUCGUAUGUACCGAAUCGGGAGGGAAAAAAAGGGUUUUUUUGGGAAAGUAUUAUGUUACGCCGUUCGGAUCUGCACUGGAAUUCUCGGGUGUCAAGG,-0.57
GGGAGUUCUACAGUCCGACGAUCAAGUCCUGUGCUACACAUCGUAUGUACCGAAUCGGAAAAAAAGGAAAGGAAAAAGGAAAGUAUUAUGUUACGCCGUUCGGAUCUGCACUUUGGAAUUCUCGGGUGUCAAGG,-0.891

# Series 3
# Target: Centromere-binding protein 1, full length, His-tagged (CBF1, Saccharomyces cerevisiae, UniProt P17106, residues 1-351)
# Sequence of UniProt P17106 (whole entry, looked up): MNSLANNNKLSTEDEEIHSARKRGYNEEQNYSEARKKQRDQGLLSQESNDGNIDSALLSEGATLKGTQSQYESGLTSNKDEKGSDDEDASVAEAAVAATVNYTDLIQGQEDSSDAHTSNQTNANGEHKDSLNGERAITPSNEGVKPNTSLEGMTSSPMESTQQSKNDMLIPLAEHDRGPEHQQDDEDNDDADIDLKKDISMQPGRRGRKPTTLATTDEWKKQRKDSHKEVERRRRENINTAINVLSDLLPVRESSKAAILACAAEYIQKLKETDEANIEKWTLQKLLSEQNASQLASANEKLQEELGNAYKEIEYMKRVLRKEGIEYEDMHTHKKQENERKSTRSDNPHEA
# Technique: competition protein-binding microarray
# Molecule type: double-stranded DNA, one strand shown
# Medium: in vitro
# Tested at: 2 µM
# Notes: whole 60-bp probe, lowest competitor level
# Added: Pho4 competitor, 0.05 µM
# Direction: higher = stronger binding
Oligonucleotide,fluorescence intensity [a.u.]
AGAATGGGCGGTTTGCACGTGAAGGTGATGTCTTGTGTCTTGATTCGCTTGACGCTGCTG,674
AAAGCGGTAATTTGGATAGTGGGTGCAGATATCTATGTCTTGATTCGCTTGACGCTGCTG,77.4
GGCCCCTAGATCCTGCTCGTGAACGATGGACTCGGCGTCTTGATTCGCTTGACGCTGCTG,62.8
CTTCTGTAAATTTGAAATGTGGGTGGACGCGCCCCGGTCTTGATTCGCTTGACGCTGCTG,64.3
CGTTTTCAGAAGTGGAATCCTGATCCAATTTGCTCTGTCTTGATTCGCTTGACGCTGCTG,66.3
GAGACGCTTAAGCGACACGTGCCTGGCTTCTGCAGCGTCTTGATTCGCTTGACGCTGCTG,1710
AGGAGGGGAATTACCGGCGTGGCCGATATTCCTTATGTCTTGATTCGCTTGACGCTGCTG,84
CGGGGTTAAGTTTGCATCGTGGGTGGCTTGCAGCAGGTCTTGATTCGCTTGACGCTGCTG,75.6
CTGAACAATATGTACATCGTGTCGGTAGAGCTGGTAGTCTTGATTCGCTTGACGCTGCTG,65.2
CTTTCCCGATCTTGCAGGGTGGGTGTAGCACATTTGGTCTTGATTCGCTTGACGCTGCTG,75.3
TTGGTGCTTTCTTTGCACGTTCTGCCAAAGTGTTTCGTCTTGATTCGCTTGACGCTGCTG,124
CTTCTGTAAATTTGACCAGTGGGTGGACGCGCCCCGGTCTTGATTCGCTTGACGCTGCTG,73.1
AAATTACTAAGTTGTGCTGTGGGTGACGCCGTATGAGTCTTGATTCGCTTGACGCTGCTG,61.8
CGTCCTAGCGATTGACGAGTGGGTGCCATGAGGAAGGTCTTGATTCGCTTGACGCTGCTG,68
AGGCACCATTCATTTGTCGTGGCCGCAATGTGTCCCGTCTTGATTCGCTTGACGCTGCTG,55.7
CTTTCCCGATCTTGAGACGTGGGTGTAGCACATTTGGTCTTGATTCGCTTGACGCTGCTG,74.1
CTTCTGTAAATTTTTCACGTGCGATGACGCGCCCCGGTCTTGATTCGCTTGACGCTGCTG,724
CTAACGAAGGTTTGTCACTTGACTTACAAGCCAAGTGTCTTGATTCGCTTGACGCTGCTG,129
CTTTCCCGATCTTGAGAAGTGGGTGTAGCACATTTGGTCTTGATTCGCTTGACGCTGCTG,64.4
GGGAAATAGACGTCGCACACGCCGAAGTATGTGTCCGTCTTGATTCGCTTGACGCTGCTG,72
TAGTGTTAAAGCAACACCGTGATGGCCTTGGTGGTGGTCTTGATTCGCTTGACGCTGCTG,83
TCCTGATATTCTCCATTGTCATCCGTTTCGTCTTCCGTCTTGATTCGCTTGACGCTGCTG,64.4
CTCGATCTACCGTTCCACGTGACTCGTCCAAGGATTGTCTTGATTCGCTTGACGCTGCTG,6120
AAATGGAACGATAGGAACGTGTAACCTACCGCTTCTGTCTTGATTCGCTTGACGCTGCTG,72.9
CTTCTGTAAATTTTTCACGTGTTGTGAAGCGCCCCGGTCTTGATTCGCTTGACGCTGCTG,1030

# Series 4
# Target: RNA binding protein fox-1 homolog 2, RRM domain, GST-SBP tag (RBFOX2, Homo sapiens, UniProt O43251-10, residues 100-194)
# Technique: RNA Bind-n-Seq
# Molecule type: RNA
# Medium: in vitro
# Tested at: 365 nM
# Notes: natural RNA segment, single round, ends assumed
# Relative to: no-protein control
# Direction: higher = stronger binding
# Residues (chain): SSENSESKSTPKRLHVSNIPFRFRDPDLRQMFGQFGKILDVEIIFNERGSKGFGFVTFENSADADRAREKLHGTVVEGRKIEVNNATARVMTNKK
Oligonucleotide,RBNS enrichment (R)
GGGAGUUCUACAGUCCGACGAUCUUUUAAAUACUAGAGAGACAGUGGACUAGGAAAGCGAGAACUUGCCGCCUUGUCUAGUGACUGUAUUCAAUGACUGAACAGAGGCCCCCCCCACCAUACAAGAGUUUUAGUGGAAUUCUCGGGUGCCAA,0.457
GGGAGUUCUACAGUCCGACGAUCCACUGUUGGAGCUACUGCAAAUGCUAUAUUGCACUGUGACCGAGAACUUUUAAGAGGAUAGAAUACAUGGAAACGCAAAUGAGUAUUUCGGAGCAUGAAGACCCUGGAGUUGGAAUUCUCGGGUGCCAA,6.26
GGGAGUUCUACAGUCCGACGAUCGGAAAGGAAUUUUGCACUUAGCCAUGGUCGGGUUGGAAGCAAAGCCUUGGGCUUUUCCUGUCCCUAGGUGCUGAGCCCCAAUCCCCCUUUCCUCCUGAGAACUCAUGUUGUGGAAUUCUCGGGUGCCAA,0.283
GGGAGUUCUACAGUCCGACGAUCGCACUGGUCACAACCGGGCAGUGGACUGGUGGAGCCUGGGAGCCCUGAUGUACGACAUGCUCACUGGAUCGGCAAGUCCAGCUUCCUUGGGCGCAGGGUGGGUGUUGGGGUGGAAUUCUCGGGUGCCAA,0.259
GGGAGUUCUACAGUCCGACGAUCAAAUUUUACAUGUUCUCUUUUAUGACAGAGAGCAGCACUGGUUCUGUUAUUUUUAAAAUGAAUAAUUGAUUUCUUGAUAGGUGUUUAAUAUUUCUUCCCUCACUGCUGAUUGGAAUUCUCGGGUGCCAA,0.529
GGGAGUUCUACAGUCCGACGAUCACGUGCUGCCUGUACAGGAGUCUCAAGCUGGAGCACUACUGCCCUGCCUUGGGCCUUGCUGCUGCUGCACCCAACUACUGAGCUGAGACCACUGAGUACCAGGGGCUGGGUGGAAUUCUCGGGUGCCAA,0.447
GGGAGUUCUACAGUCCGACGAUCUUAAUUUUCUUUCCAGGUAGAGUAGCUCUUUGUACAUAAAGAAUACUUGAAAAAUUAAUUGUAUGAUGUAUGAGAAGACAGAGUCUCCUAGUUUUGUAUCUUGUUGUAUGUGGAAUUCUCGGGUGCCAA,4.12
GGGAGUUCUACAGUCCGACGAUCAUCCUGCGCCUGCACCUGUCUCAACUCCCACCCUACAGGGAGUGGGCCAUUCCCUGGGACUCUCGCUCCUGCACUGCCAGCCCCUUCUCCUCUCCCCAGGGCCUGGCCCUUGGAAUUCUCGGGUGCCAA,0.808
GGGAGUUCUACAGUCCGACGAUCCAGCUCCUCCGGUUAUUUCCUUGCCACUGCCUGCCCGAGCCACUUCAAGCCUUAGGAACUGGCAGACGGAACUGUUUCCAUCCACCAACCCCCAGGGUAUCAACCACUUUUGGAAUUCUCGGGUGCCAA,1.4
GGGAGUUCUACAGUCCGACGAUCUCUCCACACAUCACCUGUUGUCUCACAAAAAGUAGGGGAACCUUGUCAGUCACAUAGGACAGGAUAUUUAAUGUACUUUUCCUUUCUCUGAGCCACAGUUAGCUGCUAUUUGGAAUUCUCGGGUGCCAA,0.335
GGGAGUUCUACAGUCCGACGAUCUUUCAUGGCCCUUUAUCCUAAUAUUCAAGUACUGGAGAGACCCAGAAGUGUUCCAUCCUGAGCGAUUUCUGGACAGCAGUGGAUAUUUUGCCAAGAAGGAAGCUUUGGUUUGGAAUUCUCGGGUGCCAA,0.326
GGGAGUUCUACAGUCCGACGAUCUCCAAGGAGCGAGGAGGGCAAGCGGCCUCCCAGCUCCCUGGUACCUCGAGGCACCAUUCCAGCCAGGGACGCUGCCGGGUAGACUCUCCACUCCCCCUGCCGCCCACACUUGGAAUUCUCGGGUGCCAA,0.352

# Repeated from above (series 1):
Oligonucleotide,relative absorbance
AAAAAAGCCTTTACCCTTGTTCCTCTAAAA,16.4 % of maximum
AAAAAATTCGGGACTAGTAGTGGTGAAAAA,15.8 % of maximum
AAAAAAGCTTTCAACATCTGCGTCCAAAAA,11.2 % of maximum
AAAAAACTACGTATATTCAGGCCCTAAAAA,17.3 % of maximum
AAAAAAACTTCTGTCCCTGTTCCCGTAAAA,13.3 % of maximum
